Measured values of several laboratories.
Every numbered part comes from another study and shows a few of its results, in no order.

Series 1
Target: Interferon regulatory factor 7, full length, phosphomimetic (IRF7, Homo sapiens, UniProt Q92985, residues 1-503, S471D/S472D/S475D/S476D/S477D/S483D/S484D/S487D)
UniProt Q92985, sequence (whole entry, unmodified, looked up): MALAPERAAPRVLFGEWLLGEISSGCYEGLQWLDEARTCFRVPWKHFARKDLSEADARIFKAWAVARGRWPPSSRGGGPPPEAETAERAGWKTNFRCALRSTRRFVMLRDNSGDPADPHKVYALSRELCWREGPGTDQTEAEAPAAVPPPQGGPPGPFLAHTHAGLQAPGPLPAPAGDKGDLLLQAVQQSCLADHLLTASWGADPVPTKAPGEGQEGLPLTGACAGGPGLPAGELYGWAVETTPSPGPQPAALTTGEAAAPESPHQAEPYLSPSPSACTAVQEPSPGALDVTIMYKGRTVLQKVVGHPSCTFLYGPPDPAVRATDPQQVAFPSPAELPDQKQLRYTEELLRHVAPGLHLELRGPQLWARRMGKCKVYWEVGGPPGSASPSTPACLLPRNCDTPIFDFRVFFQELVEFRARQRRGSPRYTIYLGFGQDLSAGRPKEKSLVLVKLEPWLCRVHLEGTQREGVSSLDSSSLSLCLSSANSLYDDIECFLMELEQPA
Method: protein-binding microarray
Form: double-stranded DNA, one strand shown
Matrix: in vitro
Concentration: 2200 nM top
Notes: 60-bp whole probe
With: salmon DNA 0.4 mg/ml
Relative to: random background probes
Reading: higher = stronger binding
Constant ends, left off below: GCCTAGCAC … GTCTTGATTCGCTTGACGCTGCTG
`CACGAACTGGGGACTGGAGACGTGCTA`: “fitted relative affinity” -0.482 z-score.
For `GACGGTTCCCCTTTCCTGACGTGCTAG`, “fitted relative affinity” read 2.16 z-score.
`TCATATATGACAATGATACTGTGCTAG`: “fitted relative affinity” 0.595 z-score.
For `TCATATATCCATTATAGACTGTGCTAG`, “fitted relative affinity” read 1.18 z-score.
`GACGATTTCAAACTGGAGACGTGCTAG`: “fitted relative affinity” -0.183 z-score.
For `GACGGTTTCGACTTTCGTGACGTGCTA`, “fitted relative affinity” read 7.12 z-score.
Under “fitted relative affinity”, `TTAGAGATCGGGACTGGATTAGTGCTA` is recorded as -0.788 z-score.
For `TTAGGTTTCCTAGTGCTTTAGTGCTAG`, “fitted relative affinity” read 0.528 z-score.
`TTAGATCTCAGACTTGATTAGTGCTAG`: “fitted relative affinity” -0.279 z-score.
Under “fitted relative affinity”, `TTAGAACTGAGTATCGACTAGTGCTAG` is recorded as -0.532 z-score.
`TTAGGAGTGGGACTGGGTTAGTGCTAG` — result for “fitted relative affinity”: -0.687 z-score.
Under “fitted relative affinity”, `ACAAGTTTTTATTTTCTGAAGTGCTAG` is recorded as 1.51 z-score.
`TTAGGTTCCTTTTTCCTTTAGTGCTAG` — result for “fitted relative affinity”: 3.51 z-score.
`GACGGTTTCCTGATCCTGACGTGCTAG` — result for “fitted relative affinity”: 2.13 z-score.
`GGCGGTTTCGGACTGGGGACGTGCTAG` — result for “fitted relative affinity”: 3.2 z-score.
`TTAGGTTTCGGTTCCGGTTTGTGCTAG` — result for “fitted relative affinity”: 12.6 z-score.
For `TTAGGACTGCTTCTGCTTTAGTGCTAG`, “fitted relative affinity” read 0.0304 z-score.
For `GAACCTTGGCCTCTAGGTTTGTGCTAG`, “fitted relative affinity” read 0.458 z-score.
Under “fitted relative affinity”, `GACGATTTCAGTTTCGAGAGGTGCTAG` is recorded as 4.09 z-score.
`TTTTTTTTCATCATTGCCTGGTGCTAG` — result for “fitted relative affinity”: 2.46 z-score.
`TCAACTTTCTTAATGCTACTGTGCTAG` — result for “fitted relative affinity”: 2.13 z-score.
`TTTCTCTCATTATGTGGGTTGTGCTAG`: “fitted relative affinity” 2.12 z-score.
`GACGGACTGGGACTGGGGCCGTGCTAG` — result for “fitted relative affinity”: -0.992 z-score.
For `ATGAAAATCTCAATGGGTTAGTGCTAG`, “fitted relative affinity” read -0.387 z-score.
`TTAGGTATCAACTTTCGGTTAGTGCTA` — result for “fitted relative affinity”: 6.67 z-score.

Series 2
Target: Sal-like protein 4, full length isoform B (SALL4, Homo sapiens, UniProt Q9UJQ4-2, residues 1-616)
Method: universal PBM
Form: double-stranded DNA, one strand shown
Matrix: in vitro
Concentration: not given
Notes: 8-mer, flanks averaged, mean of replicates
Reading: higher = stronger binding
The E-score of `CCGCTCTC` is reported as -0.253.
`GACGTACA` gave an E-score of -0.0168.
`AGTCTCTA` gave an E-score of 0.0254.
For `TATTAAGA`, the E-score was 0.311.
With `CCAGAGAC` the E-score was -0.286.
The E-score of `CATTGAGC` is reported as -0.0614.
With `ATGTTTTG` the E-score was 0.258.
`AGCCATAT` has an E-score of 0.251.
`AAGAGAAC` gave an E-score of 0.048.
For `GCGTATCA`, the E-score was 0.099.
With `GGCTACCC` the E-score was -0.332.
For `GGTAGTCA`, the E-score was -0.133.
For `CTTCGCGA`, the E-score was -0.178.
For `TACGCGCA`, the E-score was -0.0804.
`ATTACGCC` has an E-score of 0.09.
With `GCTCCAGC` the E-score was -0.23.
The E-score of `AAGCCACA` is reported as 0.0551.
`CCCAAGGC` has an E-score of -0.206.
`ATGAGGAA` gave an E-score of 0.171.

Series 3
Target: Histone acetyltransferase KAT6A, winged helix 2, GST fusion (KAT6A, Homo sapiens, UniProt Q92794, residues 85-181)
Method: protein binding microarray
Form: double-stranded DNA, one strand shown
Matrix: in vitro
Concentration: not given
Notes: 8-mer, flanks averaged, mean of 2 arrays, mostly near background
Relative to: not given
Reading: higher = stronger binding
Residues (chain): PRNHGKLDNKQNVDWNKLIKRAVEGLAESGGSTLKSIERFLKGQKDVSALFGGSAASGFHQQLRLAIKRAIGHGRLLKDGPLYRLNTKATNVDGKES
`GATTGCTA` gave an E-score of -0.065.
For `AAAGCTGC`, the E-score was -0.0188.
`CAATGGTA` has an E-score of -0.0519.
With `AGTAGAAG` the E-score was -0.105.
`AGTCCTAT` has an E-score of -0.201.
The E-score of `ATTTTCAA` is reported as 0.101.
The E-score of `CTTGTTAA` is reported as -0.0297.
`CAGGTAAG` has an E-score of -0.236.
For `GGTCGAAC`, the E-score was 0.125.
The E-score of `TTACAAAA` is reported as 0.0499.
The E-score of `AGCCGCCT` is reported as 0.113.
`CCAGAAAC` has an E-score of 0.127.
For `CCCTGACG`, the E-score was -0.0254.
`AATGTTGG` has an E-score of -0.19.
`AGTCTCGC` gave an E-score of -0.17.
`CTAGTGGA` has an E-score of -0.152.
`CTCCGTTC` has an E-score of 0.0673.
With `CCAACCAG` the E-score was -0.00658.
`GGTTAACC` has an E-score of 0.103.
The E-score of `CACGGAGC` is reported as 0.0996.
With `ATCCATAC` the E-score was -0.0578.
The E-score of `AGCTGGAG` is reported as -0.0261.
`AACGTGTG` has an E-score of -0.231.
For `AGTACCTG`, the E-score was 0.103.

Series 4
Target: TAR DNA-binding protein 43, full length, His tag (TARDBP, Homo sapiens, UniProt Q13148, residues 1-414)
Method: RNA Bind-n-Seq
Form: RNA
Matrix: in vitro
Concentration: 20 nM
Notes: 6-mer, flanks averaged, single round
With: 150 mM LiCl
Relative to: input library
Reading: higher = stronger binding
`ACACUG`: “6-mer enrichment (R)” 0.861.
`UUUCAG` — result for “6-mer enrichment (R)”: 0.937.
Under “6-mer enrichment (R)”, `ACGCUU` is recorded as 0.86.
For `AAUACC`, “6-mer enrichment (R)” read 0.848.
`AUCCCA`: “6-mer enrichment (R)” 0.875.
For `AAUAAU`, “6-mer enrichment (R)” read 1.52.
`UAUCUC` — result for “6-mer enrichment (R)”: 0.882.
Under “6-mer enrichment (R)”, `GCAAAU` is recorded as 0.908.
For `AUAUGU`, “6-mer enrichment (R)” read 1.09.
Under “6-mer enrichment (R)”, `CCGGGU` is recorded as 0.982.
For `CACACG`, “6-mer enrichment (R)” read 0.834.
Under “6-mer enrichment (R)”, `UUAAGA` is recorded as 0.886.
`GUUGCA`: “6-mer enrichment (R)” 1.02.
Under “6-mer enrichment (R)”, `CCUUCG` is recorded as 0.879.
`UAUACA`: “6-mer enrichment (R)” 0.875.
`CCUUAA`: “6-mer enrichment (R)” 0.93.
Under “6-mer enrichment (R)”, `CCGCGU` is recorded as 0.973.
For `GCUAUU`, “6-mer enrichment (R)” read 0.972.
Under “6-mer enrichment (R)”, `GAGUGU` is recorded as 1.6.
For `UAUUGC`, “6-mer enrichment (R)” read 0.981.
`CAUGCA` — result for “6-mer enrichment (R)”: 0.903.
`CUCUGG`: “6-mer enrichment (R)” 0.882.
`UAGUAC` — result for “6-mer enrichment (R)”: 0.86.
Under “6-mer enrichment (R)”, `UGACUA` is recorded as 0.862.

Series 5
Target: RNA binding protein fox-1 homolog 2, RRM domain, GST-SBP tag (RBFOX2, Homo sapiens, UniProt O43251-10, residues 100-194)
Method: RNA Bind-n-Seq
Form: RNA
Matrix: in vitro
Concentration: 365 nM
Notes: natural RNA segment, single round, ends assumed
Relative to: no-protein control
Reading: higher = stronger binding
Constant ends, left off below: GGGAGUUCUACAGUCCGACGAUC … UGGAAUUCUCGGGUGCCAA
Construct (chain): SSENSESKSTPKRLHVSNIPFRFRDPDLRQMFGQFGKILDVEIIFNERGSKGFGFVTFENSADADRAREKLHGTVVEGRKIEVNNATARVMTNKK
`GACCCCCUAUGGGGGACCCCCAACUCAAGGCCAAGGACUGGGCGUAUCGGAUGCUCAUAACACCCCUGGCCUGGCCCCUUUACUGAGAAGACUCCUUGGAUAUUUCCCAA` — result for “RBNS enrichment (R)”: 0.244.
For `AUUAUAUAUUGUGGUUUCUGUUUCUUGAAAGAAUUUUUUUCGUUAUUUUUACAUCUAACAAAGUAAAAAAAUUAAAAAGAGGGUAAGAAACGAUUCCGGUGGGAUGAUUU`, “RBNS enrichment (R)” read 0.46.
`AAUAAAAUUUAAGAAACAAAGGAUUCUGGGAACAGACAGGAAGGGCCCUAGGUUACAUUUUUGGUGAUGAUCCUCUCAGAACUUUUGUAAUUUUAUUUUAAAAUGUGUAU`: “RBNS enrichment (R)” 0.64.
`UCCUGAGAGAUUUUCCAUUCUUGUCACCAUUCACUUGCAUUGUAAAGAUUUUCUUUGUCUGUUGUUGGCAUAGAUUCUUUUGUACAUAUUUAUUUAUUUGUGUUUAUAUA`: “RBNS enrichment (R)” 0.924.
`CAGCUCCCCUUCAGUCAGUGUUGUCCAGCAACGGUACCGUUUACACAUUCACCUCCGACACGCCAUUUCACCUCCCUCGCCACACUGUUAGCCUUAGUGAUUGCAGUGAA` — result for “RBNS enrichment (R)”: 0.861.
`GUACUCUGGAACCAUGCCAUCACUGAUGUCAUGCUCAUGCUACCUAGCAUGCAGGAGGAUGCCAUCUGUUUCUUUGAGCCUUGUUAGAGAAGGUAAUGCUAGAGGAAGAC` — result for “RBNS enrichment (R)”: 0.981.
For `AAACAGGCCCCAAGGGCCCUGAGCCUCCAGCCCAAACCCUUAGACCUCUGGGAUCACGUUGAGUUCUAUUUAUUUAUUUACUUAUUUAUUUAUUUGUACCCACCCUUCCC`, “RBNS enrichment (R)” read 0.39.
For `AUGACCUUCACCUCUGGAGAGUAGGGUCUAUGGCGAGGGAAAAGGGUGUUCACCAUGAUAACCUAGUGCCUCCAUAGAGGGGUUUGGAAAAAUUCCAGUCCGAUUUCUUU`, “RBNS enrichment (R)” read 0.331.
`CCUCGUAUUGUACAUUUUGGGGAAAGCCUUGUGUGUAAAUCAGUGUAAACUUGGAGGAGAGAUUUUUCUAUCAUGUAGAGUAGGUAUUUUUUAUAGAUUGAAGGUUGAUC`: “RBNS enrichment (R)” 0.702.
`UGGCCCUGAGGCCCAGAGAGACAGCUGUCCACUUACCGGCAGGGUAGUCAUAGACAUAGAUACUGCAGCCUGCCCUCCUCUUGAGGCUGUUUCUGACAAACUAUCAAGAC`: “RBNS enrichment (R)” 0.333.
`UCAGGUCCAGCCAGUCCAAGCACAUGGCUUCCCAUCUGGGUGAGCCCACUGUCCCACUCCCACAUGUCUGGGCACCUGCCCUGGGCUGAGGCCAGGCUGCUCCAAGGGCC` — result for “RBNS enrichment (R)”: 0.226.
Under “RBNS enrichment (R)”, `AAAUCUUUCUAGUUGGGCUUUUUGAUUUAUUUUAAAUGGAUAUUGCUCUUUGACUUGGUUUCUUCUUGCUCCCAUAUCAUCAAAUAUUGGAGCCUAUAAUUUUUUUACCU` is recorded as 0.811.

Repeated from above (series 4):
`GUUGCA`: “6-mer enrichment (R)” 1.02.
Under “6-mer enrichment (R)”, `CCUUCG` is recorded as 0.879.
`UAUACA`: “6-mer enrichment (R)” 0.875.
`CCUUAA`: “6-mer enrichment (R)” 0.93.
Under “6-mer enrichment (R)”, `CCGCGU` is recorded as 0.973.
For `GCUAUU`, “6-mer enrichment (R)” read 0.972.
Under “6-mer enrichment (R)”, `GAGUGU` is recorded as 1.6.
For `UAUUGC`, “6-mer enrichment (R)” read 0.981.
`CAUGCA` — result for “6-mer enrichment (R)”: 0.903.
`CUCUGG`: “6-mer enrichment (R)” 0.882.
`UAGUAC` — result for “6-mer enrichment (R)”: 0.86.
Under “6-mer enrichment (R)”, `UGACUA` is recorded as 0.862.
